Assay results collected from several papers.
Numbered parts are unrelated; each lists some results of a single study.
Chain of UniProt P51955 (whole entry, looked up): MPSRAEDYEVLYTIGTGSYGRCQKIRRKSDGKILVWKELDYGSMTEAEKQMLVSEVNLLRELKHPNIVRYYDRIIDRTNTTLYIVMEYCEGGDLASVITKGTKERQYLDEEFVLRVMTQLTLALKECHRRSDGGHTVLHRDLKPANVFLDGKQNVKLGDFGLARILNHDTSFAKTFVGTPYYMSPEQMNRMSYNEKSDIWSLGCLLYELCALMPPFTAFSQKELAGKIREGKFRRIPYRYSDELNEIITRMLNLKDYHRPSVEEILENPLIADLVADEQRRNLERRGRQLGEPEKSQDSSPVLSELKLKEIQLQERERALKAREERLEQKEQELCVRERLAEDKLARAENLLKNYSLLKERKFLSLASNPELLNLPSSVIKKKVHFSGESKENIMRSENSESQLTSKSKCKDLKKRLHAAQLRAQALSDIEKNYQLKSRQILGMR
Chain of UniProt O15075 (whole entry, looked up): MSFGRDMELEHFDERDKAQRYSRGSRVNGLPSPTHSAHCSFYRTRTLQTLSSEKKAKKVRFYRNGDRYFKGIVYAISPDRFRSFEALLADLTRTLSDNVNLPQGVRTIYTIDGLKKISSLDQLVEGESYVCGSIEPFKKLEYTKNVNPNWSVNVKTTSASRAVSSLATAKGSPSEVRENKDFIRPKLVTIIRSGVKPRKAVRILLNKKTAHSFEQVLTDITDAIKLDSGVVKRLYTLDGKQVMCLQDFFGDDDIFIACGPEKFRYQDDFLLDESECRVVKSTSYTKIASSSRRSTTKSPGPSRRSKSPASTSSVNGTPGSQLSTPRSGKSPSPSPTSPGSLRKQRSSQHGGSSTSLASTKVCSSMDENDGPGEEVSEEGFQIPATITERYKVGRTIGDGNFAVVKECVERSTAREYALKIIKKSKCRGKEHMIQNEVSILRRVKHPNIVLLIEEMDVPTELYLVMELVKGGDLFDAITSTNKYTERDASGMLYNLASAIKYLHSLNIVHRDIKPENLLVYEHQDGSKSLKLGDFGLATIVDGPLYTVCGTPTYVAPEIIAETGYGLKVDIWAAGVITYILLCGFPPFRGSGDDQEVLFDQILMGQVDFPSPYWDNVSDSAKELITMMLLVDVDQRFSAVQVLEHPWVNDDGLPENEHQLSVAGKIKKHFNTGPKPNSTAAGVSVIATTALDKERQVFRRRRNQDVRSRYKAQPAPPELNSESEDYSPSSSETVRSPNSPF
Chain of UniProt P34947 (whole entry, looked up): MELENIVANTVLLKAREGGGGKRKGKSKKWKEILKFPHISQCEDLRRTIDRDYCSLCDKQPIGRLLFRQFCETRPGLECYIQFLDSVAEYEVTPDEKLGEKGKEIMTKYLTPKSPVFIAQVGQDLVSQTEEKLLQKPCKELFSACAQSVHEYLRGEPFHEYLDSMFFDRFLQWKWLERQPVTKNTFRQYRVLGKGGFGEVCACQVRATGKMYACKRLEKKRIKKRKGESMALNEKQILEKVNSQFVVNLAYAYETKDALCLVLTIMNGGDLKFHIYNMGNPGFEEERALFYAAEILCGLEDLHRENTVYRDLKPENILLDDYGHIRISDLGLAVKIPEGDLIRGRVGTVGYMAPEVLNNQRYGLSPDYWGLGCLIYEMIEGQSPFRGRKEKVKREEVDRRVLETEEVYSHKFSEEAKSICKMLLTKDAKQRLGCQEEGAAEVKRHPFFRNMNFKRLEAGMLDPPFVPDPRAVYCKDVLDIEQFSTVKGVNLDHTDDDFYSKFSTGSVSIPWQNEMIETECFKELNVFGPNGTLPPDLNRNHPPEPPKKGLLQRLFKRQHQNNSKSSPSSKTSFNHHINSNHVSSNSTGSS
Chain of UniProt Q6DT37 (whole entry, looked up): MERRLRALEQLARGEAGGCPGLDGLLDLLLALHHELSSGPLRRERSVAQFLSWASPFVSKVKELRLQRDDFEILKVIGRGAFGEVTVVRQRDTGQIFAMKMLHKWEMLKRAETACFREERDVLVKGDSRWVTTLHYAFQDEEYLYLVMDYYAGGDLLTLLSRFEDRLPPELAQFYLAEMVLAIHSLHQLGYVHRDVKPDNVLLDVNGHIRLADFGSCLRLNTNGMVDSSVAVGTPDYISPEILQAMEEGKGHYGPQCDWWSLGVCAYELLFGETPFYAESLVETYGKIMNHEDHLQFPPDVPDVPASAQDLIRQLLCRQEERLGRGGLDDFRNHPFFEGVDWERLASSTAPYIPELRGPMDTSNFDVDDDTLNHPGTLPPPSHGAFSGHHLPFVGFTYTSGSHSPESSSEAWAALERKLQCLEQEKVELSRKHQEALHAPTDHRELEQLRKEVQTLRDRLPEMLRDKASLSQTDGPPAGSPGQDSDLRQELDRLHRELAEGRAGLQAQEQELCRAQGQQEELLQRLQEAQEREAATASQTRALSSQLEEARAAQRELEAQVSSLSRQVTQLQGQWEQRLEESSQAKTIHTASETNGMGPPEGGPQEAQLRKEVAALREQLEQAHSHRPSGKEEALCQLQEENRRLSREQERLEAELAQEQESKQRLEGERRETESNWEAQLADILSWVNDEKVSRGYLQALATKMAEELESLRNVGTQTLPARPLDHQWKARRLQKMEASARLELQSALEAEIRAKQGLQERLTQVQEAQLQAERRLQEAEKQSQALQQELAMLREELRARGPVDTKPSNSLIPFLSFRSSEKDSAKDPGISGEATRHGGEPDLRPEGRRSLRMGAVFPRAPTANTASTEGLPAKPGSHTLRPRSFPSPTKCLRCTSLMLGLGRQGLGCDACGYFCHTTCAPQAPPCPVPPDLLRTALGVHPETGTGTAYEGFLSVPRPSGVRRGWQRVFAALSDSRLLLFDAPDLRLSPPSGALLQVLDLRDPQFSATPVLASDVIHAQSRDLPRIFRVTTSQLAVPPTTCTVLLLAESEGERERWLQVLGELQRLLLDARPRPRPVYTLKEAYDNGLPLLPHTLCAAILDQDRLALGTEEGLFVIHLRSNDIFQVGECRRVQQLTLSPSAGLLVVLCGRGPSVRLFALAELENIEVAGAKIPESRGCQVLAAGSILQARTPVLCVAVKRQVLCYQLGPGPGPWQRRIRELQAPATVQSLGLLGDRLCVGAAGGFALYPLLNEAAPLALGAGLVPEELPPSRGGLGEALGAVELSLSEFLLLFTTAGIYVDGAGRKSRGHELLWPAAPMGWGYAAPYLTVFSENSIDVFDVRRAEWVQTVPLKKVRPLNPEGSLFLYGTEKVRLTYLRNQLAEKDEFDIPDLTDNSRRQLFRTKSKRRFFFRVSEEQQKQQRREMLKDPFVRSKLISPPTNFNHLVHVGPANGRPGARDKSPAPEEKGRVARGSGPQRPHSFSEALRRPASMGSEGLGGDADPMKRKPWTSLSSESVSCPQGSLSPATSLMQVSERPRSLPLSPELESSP
Chain of UniProt P53779 (whole entry, looked up): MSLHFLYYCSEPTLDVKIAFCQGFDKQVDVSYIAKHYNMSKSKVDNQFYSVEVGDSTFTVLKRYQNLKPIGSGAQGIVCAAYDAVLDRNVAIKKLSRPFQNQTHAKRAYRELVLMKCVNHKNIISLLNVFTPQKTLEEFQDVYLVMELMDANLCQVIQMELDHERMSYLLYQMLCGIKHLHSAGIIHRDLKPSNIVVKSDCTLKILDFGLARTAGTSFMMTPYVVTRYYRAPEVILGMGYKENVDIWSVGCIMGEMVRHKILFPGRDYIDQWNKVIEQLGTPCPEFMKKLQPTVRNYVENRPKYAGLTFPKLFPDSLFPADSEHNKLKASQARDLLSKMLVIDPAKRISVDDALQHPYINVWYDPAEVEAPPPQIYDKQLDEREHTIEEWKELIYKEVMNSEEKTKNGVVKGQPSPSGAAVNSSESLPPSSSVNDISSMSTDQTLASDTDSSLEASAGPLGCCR

Sample 1 — mode: inhibitor; tested at: 10 µM; baseline: control; measurement: remaining activity
Target: Diamine acetyltransferase 1 (Homo sapiens, UniProt P21673)
Residues (P21673 1-171): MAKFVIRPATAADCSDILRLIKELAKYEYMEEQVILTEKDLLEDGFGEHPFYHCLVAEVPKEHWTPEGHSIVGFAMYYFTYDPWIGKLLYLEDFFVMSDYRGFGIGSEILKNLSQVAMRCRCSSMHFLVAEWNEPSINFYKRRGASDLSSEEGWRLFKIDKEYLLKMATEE
Structure (SMILES) = COc1ccc(-c2cc(=O)c3c(O)cc(O[C@@H]4O[C@H](CO[C@@H]5O[C@@H](C)[C@H](O)[C@@H](O)[C@H]5O)[C@@H](O)[C@H](O)[C@H]4O)cc3o2)cc1O; value = 101%
Structure (SMILES) = CCCCC/C=C\C/C=C\CCCCCCCC(=O)OCC; value = 95.8%
Structure (SMILES) = C=C(C)[C@@H]1CC=C(C)CC1; value = 87.2%
Structure (SMILES) = COc1cc(C=O)ccc1OC(C)=O; value = 90.4%
Structure (SMILES) = O=C(O)C1CCCCN1 (stereo not shown); value = 101%
Structure (SMILES) = O=C(O[C@@H]1O[C@@H]2COC(=O)c3cc(O)c(O)c(O)c3-c3c(cc(O)c(O)c3O)C(=O)O[C@H]([C@H]1O)[C@@H]2O)c1cc(O)c(O)c(O)c1; value = 91.8%
Structure (SMILES) = COc1ccc2c(c1OC)CN(C)c1c-2ccc2cc3c(cc12)OCO3; value = 102%

Sample 2 — tested at: 1 µM; measurement: remaining binding
Compound: CN(C)C(=O)Cn1cc(-c2nc(C3(c4ccc(-c5cnc(N)nc5)cc4)CC3)no2)cn1
target = Rhodopsin kinase GRK1 (GRK1, Homo sapiens, UniProt Q15835); read-out = cell-free assay; method = competition with immobilised ligand; value = 74%
target = Serine/threonine-protein kinase MRCK gamma (CDC42BPG, Homo sapiens, UniProt Q6DT37); method = competition binding; value = 82%
target = ALK tyrosine kinase receptor (ALK, Homo sapiens, UniProt Q9UM73, L1196M); read-out = cell-free assay; method = competition with immobilised ligand; value = 92%
target = Mitogen-activated protein kinase 8 (MAPK8, Homo sapiens, UniProt P45983); read-out = cell-free assay; method = competition with immobilised ligand; value = 78%
target = Serine/threonine-protein kinase 32B (STK32B, Homo sapiens, UniProt Q9NY57); read-out = cell-free assay; method = competition with immobilised ligand; value = 100%
target = Serine/threonine-protein kinase DCLK1 (DCLK1, Homo sapiens, UniProt O15075); read-out = cell-free assay; method = competition with immobilised ligand; value = 88%
target = Protein kinase C theta type (PRKCQ, Homo sapiens, UniProt Q04759); read-out = cell-free assay; method = competition with immobilised ligand; value = 89%
target = Mitogen-activated protein kinase kinase kinase 20 (MAP3K20, Homo sapiens, UniProt Q9NYL2); read-out = cell-free assay; method = competition with immobilised ligand; value = 92%
target = Tyrosine-protein kinase FRK (FRK, Homo sapiens, UniProt P42685); read-out = cell-free assay; method = competition with immobilised ligand; value = 100%
target = Phosphatidylinositol 4-phosphate 5-kinase type-1 gamma (PIP5K1C, Homo sapiens, UniProt O60331); read-out = cell-free assay; method = competition with immobilised ligand; value = 96%
target = Dual specificity tyrosine-phosphorylation-regulated kinase 2 (DYRK2, Homo sapiens, UniProt Q92630); read-out = cell-free assay; method = competition with immobilised ligand; value = 81%
target = Phosphatidylinositol 3-kinase C2 domain-containing subunit gamma (PIK3C2G, Homo sapiens, UniProt O75747); read-out = cell-free assay; method = competition with immobilised ligand; value = 76%
target = Atypical kinase COQ8A, mitochondrial (COQ8A, Homo sapiens, UniProt Q8NI60); read-out = cell-free assay; method = competition with immobilised ligand; value = 99%
target = Transient receptor potential cation channel subfamily M member 6 (TRPM6, Homo sapiens, UniProt Q9BX84); read-out = cell-free assay; method = competition with immobilised ligand; value = 86%
target = Serine/threonine-protein kinase Nek2 (NEK2, Homo sapiens, UniProt P51955); read-out = cell-free assay; method = competition with immobilised ligand; value = 100%

Sample 3 — Compound: Cc1cc(Nc2nc(-c3ccccc3)nc3ccccc23)n[nH]1; read-out: enzyme activity; mode: inhibitor; tested at: 0.5 µM; baseline: control; measurement: remaining activity
target = Calcium/calmodulin-dependent protein kinase type 1D (CAMK1D, Homo sapiens, UniProt Q8IU85); value = 85.4%
target = Calcium/calmodulin-dependent protein kinase type 1G (CAMK1G, Homo sapiens, UniProt Q96NX5); value = 101%
target = Dual specificity tyrosine-phosphorylation-regulated kinase 4 (DYRK4, Homo sapiens, UniProt Q9NR20); value = 103%
target = Casein kinase II subunit alpha' (CSNK2A2, Homo sapiens, UniProt P19784); value = 15%
target = STE20-like serine/threonine-protein kinase (SLK, Homo sapiens, UniProt Q9H2G2); value = 42.2%
target = Protein-tyrosine kinase 2-beta (PTK2B, Homo sapiens, UniProt Q14289); value = 61.4%
target = Proto-oncogene tyrosine-protein kinase ROS (ROS1, Homo sapiens, UniProt P08922); value = 16.7%
target = Serine/threonine-protein kinase Nek9 (NEK9, Homo sapiens, UniProt Q8TD19); value = 79.9%
target = Cyclin-dependent kinase 2, with cyclin A (CDK2, Homo sapiens, UniProt P24941); value = 96.9%
target = Myotonin-protein kinase (DMPK, Homo sapiens, UniProt Q09013); value = 100%
target = Mitogen-activated protein kinase kinase kinase 2 (MAP3K2, Homo sapiens, UniProt Q9Y2U5); value = 78.4%
target = Mitogen-activated protein kinase 10 (MAPK10, Homo sapiens, UniProt P53779); value = 88.7%
target = NT-3 growth factor receptor (NTRK3, Homo sapiens, UniProt Q16288); value = 2.01%
target = Serine/threonine-protein kinase N2 (PKN2, Homo sapiens, UniProt Q16513); value = 87.2%
target = Cyclin-dependent kinase 7 (CDK7, Homo sapiens, UniProt P50613); value = 73.3%
target = Aurora kinase A (AURKA, Homo sapiens, UniProt O14965); value = 19.8%
target = Rho-associated protein kinase 2 (ROCK2, Homo sapiens, UniProt O75116); value = 87.6%
target = Homeodomain-interacting protein kinase 3 (HIPK3, Homo sapiens, UniProt Q9H422); value = 88.5%
target = Epidermal growth factor receptor (EGFR, Homo sapiens, UniProt P00533); value = 97.4%
target = Serine/threonine-protein kinase D1 (PRKD1, Homo sapiens, UniProt Q15139); value = 77.4%
target = Proto-oncogene tyrosine-protein kinase receptor Ret (RET, Homo sapiens, UniProt P07949); value = 8.76%
target = G protein-coupled receptor kinase 5 (GRK5, Homo sapiens, UniProt P34947); value = 119%

Sample 4 — species: mouse; sample: microsomes or S9; tested at: 2 µM; time: 0.5 h; measurement: remaining compound
Structure (SMILES) = CC1=C(C(=O)OC(C)C)C(c2ccc(F)cc2)N2N=CNC2=N1 (stereo not shown); value = 14.5%
Structure (SMILES) = c1ccc(-c2ccc(-c3cn4c5ccccc5nc4n3CCN3CCCCC3)cc2)cc1; value = 0.323%
Structure (SMILES) = CC(=O)CC1c2ccc(Br)cc2NC(C)(C)C(=O)N1OCc1ccccc1 (stereo not shown); value = 96.5%
Structure (SMILES) = Cc1ccc(Nc2n[nH]c(N)c2S(=O)(=O)c2ccccc2)cc1; value = 2.62%
Structure (SMILES) = CN(C)S(=O)(=O)c1cc(C(=O)NC2CCCCC2)c(Cl)cc1Cl; value = 1.56%
Structure (SMILES) = O=C(Nc1ccc2nc[nH]c(=O)c2c1)c1cc(-c2ccc(Br)s2)n[nH]1; value = 29%
Structure (SMILES) = Cc1nc(NCC(O)CO)nc(C)c1CC(C)C (stereo not shown); value = 72.7%
Structure (SMILES) = O=C(c1ncccn1)N1C2CCC1Cn1c(nnc1-c1ccccc1)C2 (stereo not shown); value = 98.4%
